# Results of several laboratories.
# Lines come from different studies, so protocols differ. ± gives the spread as reported.
SMILES,test,system,setting,how to read,measurement,value
C=CC(=O)N1C[C@H](C)N(c2nc(OC[C@@]34CCCN3C[C@H](F)C4)nc3c(F)c(-c4ccc(F)c5sc(N)c(C#N)c45)c(C(F)(F)F)cc23)C[C@H]1C,,mouse MIA PaCa-2 xenograft,"oral, 3 mg/kg daily, 28 days",,tumour growth inhibition,99%
CC1OC(Oc2c(-c3ccc(O)cc3)oc3cc(O)cc(O)c3c2=O)C(OC(=O)C=Cc2ccc(O)cc2)C(O)C1OC(=O)C=Cc1ccc(O)cc1 (stereo not drawn),,"mouse C57BL/6, orthotopic Hepa1-6","ip, 50 or 100 mg/kg, outcome inhibited",,tumour growth,inhibited
COc1cccc2c1C(=O)c1c(O)c3c(c(O)c1C2=O)CC(O)(C(=O)CO)CC3OC1CC(NC(=O)C[C@H](N)C(=O)O)C(O)C(C)O1 (stereo partly drawn),,"mouse, HepG2 xenograft","intravenous, 5 mg/kg twice weekly, end of study",relative to: initial tumour volume,tumour volume,~5 fold
Clc1ccc2ccc3[n+](c2c1)[Ir-3]12([c]4ccccc4-3)([c]3ccccc3-c3ccc4ccc(Cl)cc4[n+]31)[n+]1ccccc1-c1cccc[n+]12.F[P-](F)(F)(F)(F)F,,"BALB/c mouse, 4T1 allograft","intraperitoneal, 2 mg/kg daily, 18 days",,tumour weight reduction,43.3%
Clc1ccc(NN=C(c2ccccc2)c2ccccn2)nc1,,"nude mouse, H358 xenograft","intraperitoneal, 110 mg/kg",relative to: vehicle,tumour weight,decreased
Cc1ncsc1-c1ccc(C(CO)NC(=O)C2CC(O)CN2C(=O)C(C(C)C)n2cc(-c3ccc(COc4c(-c5c(C)c(F)cc6[nH]ncc56)c(C5CC5)cc5c(N6CC7CC6CN7)nc(OC6CCOCC6)nc45)cc3)nn2)cc1 (stereo not drawn),,mouse PK-59 xenograft,"intravenous, 10 mg/kg once weekly, day 21",,tumour regression,18%
O=C([O-])CN1CCN(CC(=O)[O-])CCN(CC(=O)NC[C@H]2CC[C@H](C(=O)N[C@H](Cc3cnc4ccccc4c3)C(=O)NCCCC[C@H](NC(=O)N[C@@H](CCC(=O)O)C(=O)O)C(=O)O)CC2)CCN(CC(=O)[O-])CC1.[64Cu+2],micro-PET,mouse 22Rv1 xenograft,"intravenous, 5.55 MBq, 24 h",,tumour SUVmax,2.84 ± 0.46
CN1Cc2cnc3ccc(-c4ccc(N)nc4)nc3c2N(c2cccc(C(F)(F)F)c2)C1=O,,"PC-3 xenograft, mouse","oral, 30 mg/kg once daily, 14 days",,tumour growth inhibition,59.7%
NC(=O)c1cccnc1.O.O=c1[nH]cc(F)c(=O)[nH]1.O=c1[nH]cc(F)c(=O)[nH]1.O=c1[nH]cc(F)c(=O)[nH]1,,nude mouse HCT-116 xenograft,"0.018 mmol/kg/day, 21 days",,tumour weight,0.5 ± 0.1 g
C=CC(=O)N1CCCC(n2c(=O)c3ncccc3n(Cc3ccc(Oc4ccccc4)cc3)c2=O)C1 (stereo not drawn),,"mouse, Rec1 xenograft","intraperitoneal, 200 mg/kg, day 9",relative to: control over treated,tumour weight ratio,2.2 fold
C[C@H](NC(=O)CNC(=O)[C@H](CCC(=O)O)NC(=O)[C@H](CCC(=O)O)NC(=O)[C@H](CC(=O)O)NC(=O)[C@@H]1CCCN1C(=O)[C@H](Cc1ccccc1)NC(=O)[C@H](CS)NC(=O)[C@H](Cc1ccc(O)cc1)NC(=O)CCCNC(=O)CNC(=O)CNC(=O)[C@@H](C)NC(=O)CN)C(=O)N[C@@H](CS)C(=O)N[C@@H](Cc1ccc(O)cc1)C(N)=O [technetium-99m labelled],SPECT,"BALB/c nude mouse, SKBR3 tumour","intravenous, 37 MBq, 180 min",,tumour to non-tumour ratio,4.07
CCCCCCCCCCCCCC(=O)N1CCC[C@H]1C(=O)N[C@@H](CO)C(=O)N[C@@H](CCC(N)=O)C(=O)N[C@@H](CO)C(=O)N[C@@H](CCCCNC(=O)c1ccc(Br)cc1)C(=O)N[C@@H](CO)C(=O)N[C@@H](CCCCNC(=O)c1ccc(Br)cc1)C(=O)N[C@@H](C)C(=O)O,,"female SCID mouse, MDA-MB-231 fat pad xenograft","intratumoral, dose not given, alternate days for one month",relative to: DMSO-PBS vehicle,tumour regression,2.7 fold

# Excerpt of the above:
SMILES,test,system,setting,how to read,measurement,value
CC1OC(Oc2c(-c3ccc(O)cc3)oc3cc(O)cc(O)c3c2=O)C(OC(=O)C=Cc2ccc(O)cc2)C(O)C1OC(=O)C=Cc1ccc(O)cc1 (stereo not drawn),,"mouse C57BL/6, orthotopic Hepa1-6","ip, 50 or 100 mg/kg, outcome inhibited",,tumour growth,inhibited
